Experimental data collected from several papers.
Each line is one published result; not all experiments were run side by side. ± marks the error that the study gave.

| Compound | target | test | test system | setting | IC50 |
| --- | --- | --- | --- | --- | --- |
| CC(C)[C@H](N)C(=O)N[C@@H](CCCNC(=N)N)C(=O)N[C@@H](Cc1ccc(O)cc1)C(=O)O | Angiotensin-converting enzyme (ACE, Homo sapiens, UniProt P12821) | enzyme activity, inhibitor, absorbance |  |  | < 100 nM |
| CC(C)C[C@H](NC(=O)[C@H](Cc1ccc(O)cc1)NC(=O)[C@H](CO)NC(=O)[C@@H](N)CCC(N)=O)C(=O)N[C@@H](C)C(=O)N[C@H](C(=O)N1CCC[C@H]1C(=O)N[C@H](C(=O)N[C@@H](CO)C(=O)N[C@@H](Cc1ccc(O)cc1)C(=O)N[C@@H](Cc1c[nH]cn1)C(=O)N[C@@H](CC(C)C)C(=O)N[C@@H](CCC(N)=O)C(=O)N[C@@H](CCC(N)=O)C(=O)N[C@@H](CO)C(=O)O)[C@@H](C)O)C(C)C | Ppp3r1/Ppp3ca (Rattus norvegicus, UniProt P63100+P63329) | phosphatase activity, inhibitor |  | 30 min, 37 °C, added: RII phosphopeptide | 190000 nM |
| N=C(N)NCCC[C@@H]1NC(=O)[C@H](CCCCNC(=O)CC(CC(=O)NCCCCNC(=O)CCCCCCC(=O)NCCCC[C@H](NC(=O)N[C@@H](CCC(=O)O)C(=O)O)C(=O)O)NC(=O)CN2CCN(CC(=O)O)CCN(CC(=O)O)CCN(CC(=O)O)CC2)NC(=O)[C@@H](Cc2ccccc2)NC(=O)[C@H](CC(=O)O)NC(=O)CNC1=O (stereo partly drawn) | Glutamate carboxypeptidase 2 (FOLH1, Homo sapiens, UniProt Q04609) | enzyme activity, inhibitor, fluorescence |  |  | 47 nM |
| CC[C@@H]1C(=O)N(C)c2cnc(Nc3ccc(C(=O)NCCCC[C@H](NC(=O)COCCOCCNC(=O)COCCOCCNC(=O)COCCOCCNC(=O)COCCOCCNC(=O)[C@@H](NC(=O)[C@H](CO)NC(=O)[C@H](Cc4cncn4CCCCCCCCc4ccccc4)NC(=O)[C@H](CC(C)C)NC(=O)[C@@H]4CCCN4C(C)=O)[C@@H](C)OP(=O)(O)O)C(N)=O)cc3OC)nc2N1C1CCCC1 | Serine/threonine-protein kinase PLK2 (PLK2, Homo sapiens, UniProt Q9NYY3) | enzyme activity, inhibitor |  |  | 1.6 nM |
| COc1cc(-c2nn(C3CCC(N4CCN(C)CC4)CC3)c3ncnc(N)c23)ccc1NC(=O)OCc1ccccc1 (stereo not drawn) | Calcium/calmodulin-dependent protein kinase type 1 (CAMK1, Homo sapiens, UniProt Q14012) | kinase activity, inhibitor |  | added: ATP 100 µM, MBP substrate | > 20000 nM |
| COC(=O)[C@@]1(C)C=C(C(=O)Nc2cccc(C(=O)Nc3ccc(Nc4nccc(-c5cccnc5)n4)cc3)c2)C(=O)CC1 | Mitogen-activated protein kinase 8 (MAPK8, Homo sapiens, UniProt P45983) | kinase activity, inhibitor |  | added: GSH 10 mM | 17 ± 5 nM |
| F[P-](F)(F)(F)(F)F.OCP(CO)CO.OCP(CO)CO.OCP(CO)CO.OCP(CO)CO.[Cu+] | PSMB6/PSMB5/PSMB7 (Homo sapiens, UniProt P28072+P28074+Q99436) | proteasome T-L activity, inhibitor | LoVo | 24 h | 42000 nM |
| N=C(N)NCCC[C@@H]1NC(=O)[C@H](CCCCNC(=O)CNC(=O)CNC(=O)CNC(=O)CC[C@H](NC(=O)CCOCCOCCOCCOCCNC(=O)CC[C@H](NC(=O)CN2CCN(CC(=O)O)CCN(CC(=O)O)CCN(CC(=O)O)CC2)C(=O)NCCOCCOCCOCCOCCC(=O)N[C@@H](CCC(=O)NCC(=O)NCC(=O)NCC(=O)NCCCC[C@@H]2NC(=O)[C@@H](Cc3ccccc3)NC(=O)[C@H](CC(=O)O)NC(=O)CNC(=O)[C@H](CCCNC(=N)N)NC2=O)C(=O)NCC(=O)NCC(=O)NCC(=O)NCCCC[C@@H]2NC(=O)[C@@H](Cc3ccccc3)NC(=O)[C@H](CC(=O)O)NC(=O)CNC(=O)[C@H](CCCNC(=N)N)NC2=O)C(=O)NCC(=O)NCC(=O)NCC(=O)NCCCC[C@@H]2NC(=O)[C@@H](Cc3ccccc3)NC(=O)[C@H](CC(=O)O)NC(=O)CNC(=O)[C@H](CCCNC(=N)N)NC2=O)NC(=O)[C@@H](Cc2ccccc2)NC(=O)[C@H](CC(=O)O)NC(=O)CNC1=O | Integrin alpha-V/beta-3 (Homo sapiens, UniProt P05106+P06756) | ligand displacement, radioligand |  |  | 0.2 nM |
| N#Cc1cn([C@@H]2O[C@H](CSCC[C@H](N)C(=O)O)[C@@H](O)[C@H]2O)c2ncnc(N)c12 | RNA demethylase ALKBH5 (Homo sapiens, UniProt Q6P6C2) | RNA demethylase activity, inhibitor |  |  | > 50000 nM |
| CSCC[C@H](NC(=O)[C@H](Cc1ccccc1)NC(=O)[C@H](Cc1c[nH]cn1)NC(=O)CNC(=O)[C@@H](NC(=O)[C@H](C)NC(=O)[C@H](Cc1c[nH]c2ccccc12)NC(=O)[C@H](CCC(N)=O)NC(=O)[C@@H]1CCCN1C(=O)CNC(=O)CNC(=O)CNC(=O)[C@@H]1CCC(=O)N1)C(C)C)C(N)=O | Neuromedin-B receptor (NMBR, Homo sapiens, UniProt P28336) | NMBR activity, cell-based |  |  | < 1 nM |
| O=C1c2ccc(O)c(O)c2C(=O)N1Cc1ccc(F)c(Cl)c1 | Gag-Pol polyprotein, integrase (gag-pol, Human immunodeficiency virus 1, UniProt P12497) | 3'-processing, inhibitor, gel-based |  | recombinant wild-type integrase | 24200 ± 2800 nM |
| Nc1ncnc2c1ncn2[C@@H]1O[C@H](CSCCNC(=O)NCCc2ccccc2)[C@@H](O)[C@H]1O | DNA (cytosine-5)-methyltransferase 1 (DNMT1, Homo sapiens, UniProt P26358) | enzyme activity, inhibitor, radiometric |  |  | > 50000 nM |

Repeated from above:
| Compound | target | test | test system | setting | IC50 |
| --- | --- | --- | --- | --- | --- |
| COc1cc(-c2nn(C3CCC(N4CCN(C)CC4)CC3)c3ncnc(N)c23)ccc1NC(=O)OCc1ccccc1 (stereo not drawn) | Calcium/calmodulin-dependent protein kinase type 1 (CAMK1, Homo sapiens, UniProt Q14012) | kinase activity, inhibitor |  | added: ATP 100 µM, MBP substrate | > 20000 nM |
